Published values from different studies.
Each numbered part is a random draw from the data of one study; scales do not carry over between parts. Changes are numbered by the printed parent chain.

Study 1 — technique: protein binding microarray; form: double-stranded DNA, one strand shown; sample: in vitro; tested at: not given; reference: not given; direction: higher = stronger binding; endpoint: E-score
Target: Histone acetyltransferase KAT6A, both winged helices, GST fusion (KAT6A, Homo sapiens, UniProt Q92794, residues 1-181)
Notes: 8-mer, flanks averaged, mean of 2 arrays, mostly near background
Construct (chain): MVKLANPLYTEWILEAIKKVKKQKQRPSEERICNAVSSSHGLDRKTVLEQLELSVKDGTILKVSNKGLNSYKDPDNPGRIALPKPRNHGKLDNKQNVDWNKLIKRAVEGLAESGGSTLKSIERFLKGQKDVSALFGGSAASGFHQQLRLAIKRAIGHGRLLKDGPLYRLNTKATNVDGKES
AATGCCAT: 0.0382
CAAACTCC: 0.0997
CTCCAGTC: -0.108
ACCAACCG: 0.0502
CTTGACTC: -0.0868
CGAGGGGC: -0.0935
AGGTTTGA: -0.164
AGCGACTG: -0.0279
AGAGCTGG: -0.144
GCGTCACA: 0.0726
AGTCATAT: -0.126
CCTTCGCC: 0.00766
GACCGTTA: 0.148
CGTGGTGC: -0.0762
ACGGCCAG: 0.112
CATTCGCC: 0.139
AAGGGAAT: -0.11
CCGTCCCG: 0.305
ACACTTTA: -0.15
GTTCTCTA: 0.0661
CTCCACTC: -0.218
GAGAGCCA: -0.0947
AGCCCGCG: 0.26
ATTCGCAC: 0.065
AGTCTTGG: -0.0559

Study 2 — target: CCNF, cyclin fold, Cln2 fusion (human); technique: yeast growth competition, sequencing; sample: yeast; notes: strong parent motif; reference: not given; direction: higher = stronger binding; endpoint: normalised enrichment score
Starting sequence: E2F1 docking peptide (human); PPVKRRLDLETDH
P2S: 6.65
D12S: 6
H13W: 6.94
D12P: 8.49
T11Q: 5.49
K4M: 4.99
T11W: 7.79
D8M: 8.01
H13P: 6.35
T11I: 6.74
E10Y: 7.44
R6T: 2.37
P2L: 4.46
L7M: 0.788
D12H: 7.08
P1Q: 5.68
P1S: 2.85
V3G: 2.58
T11S: 6.24
R5W: 0.614
R5K: 2.17
T11F: 7.11
D12V: 7.43
T11G: 6.09
L7A: 0.645

Study 3 — technique: RNA Bind-n-Seq; form: RNA; sample: in vitro; tested at: 365 nM; reference: no-protein control; direction: higher = stronger binding; endpoint: RBNS enrichment (R)
Target: RNA binding protein fox-1 homolog 2, RRM domain, GST-SBP tag (RBFOX2, Homo sapiens, UniProt O43251-10, residues 100-194)
Notes: natural RNA segment, single round, ends assumed
Shared flanks, not repeated: GGGAGUUCUACAGUCCGACGAUC … UGGAAUUCUCGGGUGCCAA
Residues (chain): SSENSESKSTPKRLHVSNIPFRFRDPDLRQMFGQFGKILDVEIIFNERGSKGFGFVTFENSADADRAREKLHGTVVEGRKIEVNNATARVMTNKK
ACAGCGUCGUUGAAGUCCCACUGUUGGCAGUUUUGGCAGUGGUACCUAACUCAUCGUGUUUGCAUUCUUGUUAAGUUUUUUUGGCUUUGGAAUGUGACACAGCCUUUUUG: 1.06
CACAGCCUCCAUGUGCGCGCGCGUGUGGAGCUGUGUGCACCGCAUGUGUGCUUUCCACAGGGGCGUCUCUGCGUCCACGCCUGCACAUCCCGGCGCACGUGUGGGCACCA: 2.54
CACCCACCAACAGGAAGGCCUGGUGAAGGUUCAGGAAGUCUGGAGAGUCUCCCCAGACCAAGGUCAGAAAGGAUGCCCAGAGGUUCCAAGAACAGAGCAACAGCAACGGA: 0.252
CCAUUUGGUUAGCAGACAGUGACAGCUGAGCAGGUCUGAGCACUACUGUGUCAUAGUGGACCCUGACUGCAGGAGUCAGGCCUCUCAGCCCAGGGCAGAUGCUGCCUUUA: 0.577
AGCCUAGCCACAGAGUCUAAGAUUCUGUAUCCUCUGACAUUUUGGAAAUGAUACACUACUGGCUUAAGUGAUGACUCUUUCAGAUUUUCAGUAUUUUAUACAACUACUGC: 0.326
GGAGUCGGGGGCCACAGGCCUCUAGCUGUGCUGCUCAAGAGACUGGAUCAGGGUAGCUACAAGUGGCCGGGCCUUGCCUUUGGGAUUCUACCUGUUCCUAAUUUGGUGUG: 0.5
UUUGCACUAAAUUAGUGACUUGGACUUUUGCCCAGUGAAGACAGGCUGUGACACUCUGGAUGUCUUGGUGUGUGUAGACACACAUUGCAGACUCUUAACGCAGGAAGGAC: 0.756
UGUUCUGGGUGGGGCUUUGCCUCUCCACUGGGAAACUGACUUUUGCUGGGUUGAACAGAGUCCCUUAUGCUUUUUGUCCUCUCCCUGCGCCUGGGAGAGGUGGGAGUAGG: 0.26
AGCUCAAAUAAUCCUGAUGCAAUAUGUAUUUAGGAUAAUUUUUAAAUGGCUAAAUAUGACAUGACUGUAUUAUAGCUAUAUUUCUGAGGCUUUUUUUGUAUUUUAUUAAU: 1.15
GGGGCAGUGGGUUGGGGUUGUUUUUACUACAAAAUAAGUUACUUAGUUUUAUAAAGACAAACCGAUUGUAGCCAAAUGACACCAUAUUUAAUAAAAUUUAGUCUGAAGUG: 0.588
UGUGUACAAUCUUGGGCACUGAUUCCAUCAGUAGUAUCUUGUACCAUCCAAGGAGAGGGCCAGGAAAACAUCCACCAUCAAAUGGUUUUCCAGCUCCCUCAUCUCUUCAA: 0.274
UAUUCAAGAAUGUAUUAAUAAGGCAUUGCCCCCUGUUUGCACUCAGGGUUAAUAUGUCAAAUGAAAUUUAAGAAGGAAAUGGAAGAAUUCAGGUACAUUAAUUGCAUAUU: 4.75

Study 4 — technique: aptamer microarray, sandwich; form: DNA with 2'F-ANA; sample: in vitro; tested at: 200 nM; with: Cy3 exosite-II aptamer, 400 nM; direction: higher = stronger binding; endpoint: mean fluorescence intensity; strand: GGTTGGTGTGGTTGG
Target: Prothrombin, mature alpha-thrombin (F2, Homo sapiens, UniProt P00734)
Notes: whole 15-mer aptamer, many near background
2'F-ANA at 2 4 5 7 8 10 12 13: 78.5 a.u.
2'F-ANA at 3 5 7 11 14: 60.3 a.u.
2'F-ANA at 1 2 4 7 13 14: 50 a.u.
2'F-ANA at 1 3 6 7 9 11: 209 a.u.
2'F-ANA at 2 3 4 7 9 10 11 12: 290 a.u.
2'F-ANA at 4 6 7 12 13 15: 385 a.u.
2'F-ANA at 1 2 5 6 7 14 15: 45.4 a.u.
2'F-ANA at 1 2 3 4 5 7 8 9 12: 143 a.u.
2'F-ANA at 2 4 5 6 9 11: 119 a.u.
2'F-ANA at 1 2 4 6 7 8 9 12 14: 64.7 a.u.
2'F-ANA at 8 9 12 13 15: 686 a.u.
2'F-ANA at 1 3 10 11 14 15: 123 a.u.
2'F-ANA at 1 9 12 14 15: 71.5 a.u.
2'F-ANA at 1 2 3 4 10 11 12 14: 49.2 a.u.
2'F-ANA at 1 2 4 5 8 9 14: 43.3 a.u.
2'F-ANA at 1 7 9 10 12 13 15: 73.2 a.u.
2'F-ANA at 1 4 5 9 10 11 12 15: 48.2 a.u.
2'F-ANA at 1 2 7 8 9 11 14: 55.1 a.u.
2'F-ANA at 1 4 5 6 8 13: 51.3 a.u.
2'F-ANA at 2 6 7 8 9 10 11 14: 86 a.u.
2'F-ANA at 1 3 10 13: 76.9 a.u.
2'F-ANA at 2 3 4 5 12 13 14: 49.8 a.u.
2'F-ANA at 1 6 7 9 13: 105 a.u.
2'F-ANA at 2 3 4 7 11 12 14 15: 349 a.u.
2'F-ANA at 1 4 5 7 8 12 15: 104 a.u.
